Published values gathered from unrelated publications.
Every numbered part comes from another study and shows a few of its results, in no order. Positions count from the first letter of the parent shown.

Sample 1
Target: UDP-N-acetylglucosamine--peptide N-acetylglucosaminyltransferase 110 kDa subunit (OGT, Homo sapiens, UniProt O15294)
Effect on: binding
Technique: phage display NGS
Form: peptide
Tested at: concentration not given
Notes: normalized abundance
Reference: input library
Target sequence (O15294 1-1046): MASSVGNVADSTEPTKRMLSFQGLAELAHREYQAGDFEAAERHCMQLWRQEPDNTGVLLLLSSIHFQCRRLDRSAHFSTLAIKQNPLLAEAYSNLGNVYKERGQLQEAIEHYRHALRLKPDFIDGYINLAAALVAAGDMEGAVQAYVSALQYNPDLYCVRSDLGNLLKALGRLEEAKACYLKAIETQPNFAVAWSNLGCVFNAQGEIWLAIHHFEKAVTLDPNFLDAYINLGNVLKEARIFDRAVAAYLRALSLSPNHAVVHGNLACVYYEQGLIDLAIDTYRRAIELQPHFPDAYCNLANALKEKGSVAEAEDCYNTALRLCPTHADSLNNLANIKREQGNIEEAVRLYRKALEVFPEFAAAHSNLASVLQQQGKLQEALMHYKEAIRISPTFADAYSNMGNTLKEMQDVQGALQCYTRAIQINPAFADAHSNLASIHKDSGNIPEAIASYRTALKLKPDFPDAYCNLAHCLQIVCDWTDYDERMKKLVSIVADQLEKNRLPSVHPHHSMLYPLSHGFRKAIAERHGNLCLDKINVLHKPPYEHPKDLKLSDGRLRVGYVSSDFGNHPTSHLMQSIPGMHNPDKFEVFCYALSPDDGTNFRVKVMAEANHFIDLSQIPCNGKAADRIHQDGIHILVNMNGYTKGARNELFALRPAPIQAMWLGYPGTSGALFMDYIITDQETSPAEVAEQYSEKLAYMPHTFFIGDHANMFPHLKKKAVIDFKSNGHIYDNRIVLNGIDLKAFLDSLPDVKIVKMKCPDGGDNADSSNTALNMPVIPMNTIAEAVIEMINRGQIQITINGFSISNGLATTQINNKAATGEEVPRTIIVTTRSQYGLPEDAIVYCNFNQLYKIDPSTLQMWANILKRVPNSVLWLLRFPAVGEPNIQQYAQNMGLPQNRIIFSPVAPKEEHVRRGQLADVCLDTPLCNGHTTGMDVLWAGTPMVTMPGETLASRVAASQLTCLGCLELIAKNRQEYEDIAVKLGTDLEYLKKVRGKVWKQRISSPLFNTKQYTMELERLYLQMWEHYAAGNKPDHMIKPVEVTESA
Under “enrichment fold change”, `HYDHNQWIHSSFHDH` is recorded as 5.03.
`HDHNKWAVNQHGWHV` — result for “enrichment fold change”: 8.53.
For `GHFPVLHNTYQHHHQ`, “enrichment fold change” read 8.58.
For `HSDHSHQNHHPPHIR`, “enrichment fold change” read 8.54.
Under “enrichment fold change”, `YLIEPPKRHHHYHN` is recorded as 9.45.
Under “enrichment fold change”, `HSQHAIHHTIDNHA` is recorded as 11.3.
Under “enrichment fold change”, `HILVPMRPMTHHHAV` is recorded as 8.38.
For `DDITFPPQYMMTVHR`, “enrichment fold change” read 3.97.

Sample 2
Target: tungstate, free oxyanion
Technique: microfluidic competitive inhibition
Sample: in vitro, cell-free expressed
Tested at: not given
Notes: derived from inhibition constants, unchanged parent 2230 nM
Reading: lower = stronger binding
Starting sequence: PafA, mature enzyme, eGFP fusion (Elizabethkingia meningoseptica, UniProt Q9KJX5); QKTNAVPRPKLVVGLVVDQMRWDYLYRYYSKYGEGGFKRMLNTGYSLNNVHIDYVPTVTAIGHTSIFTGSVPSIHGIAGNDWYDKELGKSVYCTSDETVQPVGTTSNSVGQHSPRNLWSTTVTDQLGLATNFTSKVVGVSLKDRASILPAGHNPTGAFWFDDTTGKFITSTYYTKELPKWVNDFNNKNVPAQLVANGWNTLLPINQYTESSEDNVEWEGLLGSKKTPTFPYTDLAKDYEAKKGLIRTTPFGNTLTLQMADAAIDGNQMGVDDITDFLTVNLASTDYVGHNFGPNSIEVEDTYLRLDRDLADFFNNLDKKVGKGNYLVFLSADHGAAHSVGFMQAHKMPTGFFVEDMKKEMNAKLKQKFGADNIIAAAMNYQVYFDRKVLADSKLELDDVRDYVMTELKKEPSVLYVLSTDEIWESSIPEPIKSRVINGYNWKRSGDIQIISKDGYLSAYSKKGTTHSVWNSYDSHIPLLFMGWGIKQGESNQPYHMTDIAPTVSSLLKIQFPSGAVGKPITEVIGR
For `D23V`, “oxyanion analog dissociation constant” read 1.35 µM.
Under “oxyanion analog dissociation constant”, `S119V` is recorded as 2.15 µM.
For `L256G`, “oxyanion analog dissociation constant” read 1.56 µM.
For `P249G`, “oxyanion analog dissociation constant” read 4.06 µM.
`A362G`: “oxyanion analog dissociation constant” 2.23 µM.
For `K31G`, “oxyanion analog dissociation constant” read 2.25 µM.
`F229V` — result for “oxyanion analog dissociation constant”: 2.81 µM.
Under “oxyanion analog dissociation constant”, `K461G` is recorded as 2.1 µM.

Sample 3
Target: CCNF, cyclin fold, Cln2 fusion (human)
Technique: yeast growth competition, sequencing
Sample: yeast
Notes: strong parent motif
Reference: not given
Reading: higher = stronger binding
Starting sequence: viral docking peptide; KGVKRKLFAEDSS
`E10G`: “normalised enrichment score” 7.72.
Under “normalised enrichment score”, `A9I` is recorded as 8.12.
`V3M`: “normalised enrichment score” 2.72.
`F8Q`: “normalised enrichment score” 1.11.
Under “normalised enrichment score”, `S12E` is recorded as 7.05.
`A9K`: “normalised enrichment score” 7.82.
For `K6A`, “normalised enrichment score” read 7.36.
`K4G`: “normalised enrichment score” 5.88.

Other studies, line by line
CCC(=O)N[C@@H]1CC[C@H](C(=O)N(C)c2ccc(-c3nc4ccccc4o3)cc2)C1 gave a remaining binding of 90% (Calcium-dependent protein kinase 1 (CDPK1, Plasmodium falciparum, UniProt P62344); cell-free assay, competition with immobilised ligand; 1 µM).

For quick reference, copied from above (sample 3):
Under “normalised enrichment score”, `S12E` is recorded as 7.05.
For `K6A`, “normalised enrichment score” read 7.36.
`V3M`: “normalised enrichment score” 2.72.
`K4G`: “normalised enrichment score” 5.88.
